Measurements gathered from unrelated publications.
Compare with care: the assays were run in different laboratories. ± marks the error that the study gave.
Mrgprb2: Mrgprb2 (Mus musculus, UniProt Q3KNA1)
OPRM1: Mu-type opioid receptor (OPRM1, Homo sapiens, UniProt P35372)
CLPP: ATP-dependent Clp protease proteolytic subunit, mitochondrial (CLPP, Homo sapiens, UniProt Q16740)
Kir3.1/Kir3.4: Kir3.1/Kir3.4 (Homo sapiens, UniProt P48544+P48549)
uncharacterized protein: uncharacterized protein (Puma concolor, UniProt A0A6P6H1F7)

SMILES | target | test | test system | setting | EC50
CC[C@@H](C)[C@@H](NC(=O)[C@@H](C)NC(=O)[C@@H](CCCNC(=N)N)NC(=O)[C@@H](Cc1c[nH]c2ccccc12)NC(=O)[C@@H](CCC(N)=O)NC(=O)[C@H](N)C(C)C)C(=O)N[C@H](CCCNC(=N)N)C(=O)N[C@@H](C(=O)N[C@H](CCCNC(=N)N)C(=O)N[C@@H](C(=O)N[C@@H](C(=O)N[C@H](CCCNC(=N)N)C(N)=O)[C@H](C)CC)C(C)C)C(C)C | Mrgprb2 | mast cell degranulation, agonist, measured: β-hexosaminidase release | peritoneal mast cells, wild-type mice |  | 1.39 µM
C[C@H]1C[C@@H](N2C(=N)N[C@](C)(c3cccc(NC(=O)c4cccc(C#N)c4)c3Cl)CC2=O)CCO1 | OPRM1 | functional response, agonist | cells |  | 16 µM
C[C@@H]1CC2=C(CN1Cc1cccc(C#N)c1)C(=O)N(Cc1cccc(Br)c1)C1=NCCN12 | CLPP | peptidase activity, activator |  | with: Ac-WLA-AMC | 0.0481 ± 0.0016 µM
COc1cc(Nc2ncc3c(n2)-c2ccc(Cl)cc2C(c2c(F)cccc2OC)=NC3)ccc1C(=O)O | Adenylate kinase 2, mitochondrial (Homo sapiens, UniProt P54819) | binding, kinobead competition | MV4-11 cell lysate |  | 0.215 µM
Cc1cc(Br)ccc1CN1C(=O)C2=C(C[C@@H](C)N(Cc3cccc(C#N)c3)C2)N2CCN=C12 | CLPP | peptidase activity, activator |  | with: Ac-WLA-AMC | 0.1036 ± 0.0003 µM
CCc1cc(NC(=O)COc2ccc(Cl)cc2Cl)n(C2CCC(F)(F)CC2)n1 | Kir3.1/Kir3.4 | activator, thallium flux | HEK293 |  | 0.306 µM
Cc1ccn(-c2nc(NC3CCC(F)(F)CC3)cc(N3CCOCC3)n2)n1 | Calm1/Kcnn2 (Rattus norvegicus, UniProt P0DP29+P70604) | activator, inside-out patch clamp |  | rat channel | 5.1 ± 1 µM
O=C1Nc2c(ccc(Cl)c2Cl)C1=NO | KCNN4/CALM1 (Homo sapiens, UniProt O15554+P0DP23, R287A) | ion current, activator, whole-cell patch clamp |  | R287A mutant | 0.098 µM
CCC(C)N(C)C(=O)c1cc2ccccc2c(-c2ccccc2Cl)n1 (stereo not shown) | Nuclear receptor subfamily 1 group I member 2 (NR1I2, Homo sapiens, UniProt O75469) | agonist |  | 120 min, pH 7.5 | 1.64 µM
CCc1nccnc1CC | uncharacterized protein | cAMP, agonist | HEK293 transfected with uncharacterized protein |  | > 1500 µM
Cn1cc2c(C(=O)O)ccc(NS(=O)(=O)c3ccc(OCC4CCC4)c(Cl)c3)c2n1 | OPRM1 | antagonist |  |  | > 10 µM
CCc1cc(NC(=O)COc2ccc(C(F)(F)F)cc2C(F)(F)F)n(CC(F)(F)F)n1 | Kir3.1/Kir3.4 | activator, thallium flux | HEK293 |  | 1.6 µM
NCCCC(=O)O | Solute carrier family 22 member 15 (SLC22A15, Homo sapiens, UniProt Q8IZD6) | creatine efflux, activator, LC-MS/MS | human cells, HBSS | 30 min, 37 °C, with: 1 mM and 10 mM creatine, butyrate, sodium | 800 µM
CC[C@@H](C)[C@@H](NC(=O)[C@H](NC(=O)[C@@H](CCCNC(=N)N)NC(=O)[C@H](NC(=O)[C@H]1CCCN1C(=O)[C@H](NC(=O)[C@@H](C)NC(=O)[C@@H](CCCNC(=N)N)NC(=O)[C@@H](Cc1c[nH]c2ccccc12)NC(=O)[C@@H](CCC(N)=O)NC(=O)[C@H](N)C(C)C)[C@H](C)CC)C(C)C)C(C)C)C(=O)N[C@H](CCCNC(=N)N)C(N)=O | Mrgprb2 | mast cell degranulation, agonist, measured: β-hexosaminidase release | peritoneal mast cells, wild-type mice |  | 3.33 µM
O=C(COc1ccc(Cl)cc1Cl)Nc1cc(C2CCC2)nn1C1CCOCC1 | Kir3.1/Kir3.4 | activator, thallium flux | HEK293 |  | 10 µM
CC[C@H](C)[C@H](NC(=O)[C@H](CCC(N)=O)NC(=O)[C@H](C)NC(=O)[C@H](Cc1c[nH]c2ccccc12)NC(=O)[C@H](CCC(=O)O)NC(=O)[C@H](CCC(=O)O)NC(=O)[C@H](CCC(=O)O)NC(=O)[C@H](CC(C)C)NC(=O)[C@H](CO)NC(C)=O)C(=O)N[C@@H](CCC(=O)O)C(=O)N[C@H]1CSSC[C@@H](C(=O)N2CCC[C@H]2C(=O)N[C@@H](CO)C(=O)N[C@@H](CCC(=O)O)C(=O)N[C@@H](CO)C(=O)N[C@@H](Cc2ccccc2)C(=O)N[C@@H](Cc2ccc(O)cc2)C(=O)N[C@@H](CC(=O)O)C(=O)N[C@@H](Cc2c[nH]c3ccccc23)C(=O)N[C@@H](Cc2ccccc2)C(=O)N[C@@H](CCC(=O)O)C(=O)N[C@@H](CCCNC(=N)N)C(=O)N[C@@H](CCC(N)=O)C(=O)N[C@@H](CC(C)C)C(N)=O)NC(=O)CNC(=O)[C@H](CCCNC(=N)N)NC(=O)CNC(=O)[C@H](Cc2ccc(O)cc2)NC(=O)[C@H](C(C)C)NC(=O)[C@H](CCC(=O)O)NC1=O | Insulin receptor, isoform B (INSR, Homo sapiens, UniProt P06213) | AKT phosphorylation, agonist | NIH 3T3 (IR-B) |  | 0.0102 µM
C=CCc1ccc(OC)c(OC)c1 | uncharacterized protein | cAMP, agonist | HEK293 transfected with uncharacterized protein |  | 129 ± 47 µM
CCn1c(-c2nc3ccc(C(=O)N4CCCC(N)C4)cc3n2C)cc2ccccc21 (stereo not shown) | OPRM1 | agonist, GTPγS binding |  |  | > 100 µM
O=C(COc1cccc(Cl)c1Cl)Nc1cc(C2CC2)nn1C1CCC(F)(F)CC1 | Kir3.1/Kir3.4 | activator, thallium flux | HEK293 |  | 1.04 µM
Cc1nn(-c2nc3c(F)cc(F)cc3s2)c(O)c1C(c1cccc(C(F)(F)F)c1)c1c(C)nn(-c2nc3c(F)cc(F)cc3s2)c1O | Cyclic GMP-AMP synthase, catalytic domain; with DNA (CGAS, Homo sapiens, UniProt Q8N884) | cGAS-DNA phase separation, inhibitor |  |  | 4.7 µM
CCc1cc(NC(=O)COc2cccc(Cl)c2Cl)n(C2CCOCC2)n1 | Kir3.1/Kir3.4 | activator, thallium flux | HEK293 |  | 0.49 µM
CC[C@H](C)[C@H](NC(=O)[C@@H]1CCCN1C(=O)CNC(=O)[C@H](Cc1ccccc1)NC(=O)[C@H](CC(N)=O)NC(=O)[C@H](CC(N)=O)NC(=O)[C@H](CO)NC(=O)[C@H](CO)NC(=O)[C@H](Cc1c[nH]cn1)NC(=O)[C@@H](NC(=O)[C@H](CC(C)C)NC(=O)[C@H](Cc1ccccc1)NC(=O)[C@H](CC(N)=O)NC(=O)[C@H](C)NC(=O)[C@H](CC(C)C)NC(=O)[C@H](CCCNC(=N)N)NC(=O)[C@H](CCC(N)=O)NC(=O)[C@@H](NC(=O)[C@H](C)NC(=O)[C@@H]1CSSC[C@H](NC(=O)[C@@H](N)CCCCN)C(=O)N[C@@H](CC(N)=O)C(=O)N[C@@H]([C@@H](C)O)C(=O)N[C@@H](C)C(=O)N[C@@H]([C@@H](C)O)C(=O)N1)[C@@H](C)O)C(C)C)C(=O)N[C@@H](CC(C)C)C(=O)N1CCC[C@H]1C(=O)N1CCC[C@H]1C(=O)N[C@H](C(=O)N[C@@H](CC(N)=O)C(=O)N[C@H](C(=O)NCC(=O)N[C@@H](CO)C(=O)N[C@@H](CC(N)=O)C(=O)N[C@H](C(=O)N[C@@H](Cc1ccc(O)cc1)C(N)=O)[C@@H](C)O)C(C)C)[C@@H](C)O | Calcr/Ramp3, CT(a) isoform (Mus musculus, UniProt Q60755+Q9WUP1) | cAMP accumulation, agonist, cAMP HTRF | BHK, transiently transfected | without human serum albumin | 2.5e-06 µM
O=C(COc1ccc(Cl)cc1Cl)Nc1cc(C2CCC2)nn1C1CCC(F)(F)CC1 | Kir3.1/Kir3.4 | activator, thallium flux | HEK293 |  | 10 µM
COc1cc(Nc2ncc3c(n2)-c2ccc(Cl)cc2C(c2c(F)cccc2OC)=NC3)ccc1C(=O)NCCOCCOCCNC(=O)COc1cccc2c1C(=O)N(C1CCC(=O)NC1=O)C2=O (stereo not shown) | DnaJ homolog subfamily A member 1 (DNAJA1, Homo sapiens, UniProt P31689) | binding, kinobead competition | MV4-11 cell lysate |  | > 30 µM
O=C(COc1cc(Cl)ccc1Cl)Nc1cc(C2CC2)nn1CC(F)(F)F | Kir3.1/Kir3.4 | activator, thallium flux | HEK293 |  | 1.75 µM
CCNC(=O)N1CCN(c2nc(NC3CCN(C(=O)[C@@H](CCc4ccc(OC)cc4)NC(=O)[C@@H]4CCCCN4C(=O)C(=O)C(C)(C)CC)CC3)nc(N(Cc3cnn(C)c3)C3CC3)n2)CC1 | FKBP1A/BRD9, BRD9 bromodomain (Homo sapiens, UniProt P62942+Q9H8M2) | FKBP12 recruitment, NanoBiT | HEK-293T | 2 h, BRD9 bromodomain | 0.82 µM
CCc1cc(NC(=O)COc2ccc(Cl)cc2Cl)n(CC(F)(F)F)n1 | Kir3.1/Kir3.4 | activator, thallium flux | HEK293 |  | 1 µM
C[C@@H]1CC2=C(CN1Cc1cccc(C#N)c1)C(=O)N(Cc1ccc(Br)c(F)c1)C1=NCCN12 | CLPP | peptidase activity, activator |  | with: Ac-WLA-AMC | 0.0357 ± 0.003 µM

A few entries again:
SMILES | target | test | test system | setting | EC50
O=C(COc1ccc(Cl)cc1Cl)Nc1cc(C2CCC2)nn1C1CCC(F)(F)CC1 | Kir3.1/Kir3.4 | activator, thallium flux | HEK293 |  | 10 µM
COc1cc(Nc2ncc3c(n2)-c2ccc(Cl)cc2C(c2c(F)cccc2OC)=NC3)ccc1C(=O)NCCOCCOCCNC(=O)COc1cccc2c1C(=O)N(C1CCC(=O)NC1=O)C2=O (stereo not shown) | DnaJ homolog subfamily A member 1 (DNAJA1, Homo sapiens, UniProt P31689) | binding, kinobead competition | MV4-11 cell lysate |  | > 30 µM
O=C(COc1cc(Cl)ccc1Cl)Nc1cc(C2CC2)nn1CC(F)(F)F | Kir3.1/Kir3.4 | activator, thallium flux | HEK293 |  | 1.75 µM
CCNC(=O)N1CCN(c2nc(NC3CCN(C(=O)[C@@H](CCc4ccc(OC)cc4)NC(=O)[C@@H]4CCCCN4C(=O)C(=O)C(C)(C)CC)CC3)nc(N(Cc3cnn(C)c3)C3CC3)n2)CC1 | FKBP1A/BRD9, BRD9 bromodomain (Homo sapiens, UniProt P62942+Q9H8M2) | FKBP12 recruitment, NanoBiT | HEK-293T | 2 h, BRD9 bromodomain | 0.82 µM
CCc1cc(NC(=O)COc2ccc(Cl)cc2Cl)n(CC(F)(F)F)n1 | Kir3.1/Kir3.4 | activator, thallium flux | HEK293 |  | 1 µM
